# Assay results collected from several papers.
# Every numbered part comes from another study and shows a few of its results, in no order.
# Chain of UniProt Q9BWU1 (whole entry, looked up): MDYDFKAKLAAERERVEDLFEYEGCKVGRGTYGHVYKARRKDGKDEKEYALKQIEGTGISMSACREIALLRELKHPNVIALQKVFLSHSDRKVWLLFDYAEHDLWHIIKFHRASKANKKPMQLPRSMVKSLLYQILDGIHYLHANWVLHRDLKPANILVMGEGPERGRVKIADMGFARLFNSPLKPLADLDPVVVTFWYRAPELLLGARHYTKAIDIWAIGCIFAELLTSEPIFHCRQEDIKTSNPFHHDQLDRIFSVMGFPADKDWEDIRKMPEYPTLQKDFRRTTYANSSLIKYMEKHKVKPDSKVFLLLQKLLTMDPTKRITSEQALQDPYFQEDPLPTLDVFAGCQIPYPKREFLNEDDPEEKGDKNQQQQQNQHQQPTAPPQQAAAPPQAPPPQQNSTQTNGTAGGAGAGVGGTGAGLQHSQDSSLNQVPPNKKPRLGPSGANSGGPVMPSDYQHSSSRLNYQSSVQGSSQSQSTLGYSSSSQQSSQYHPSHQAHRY
# Chain of UniProt Q9UKS7 (whole entry, looked up): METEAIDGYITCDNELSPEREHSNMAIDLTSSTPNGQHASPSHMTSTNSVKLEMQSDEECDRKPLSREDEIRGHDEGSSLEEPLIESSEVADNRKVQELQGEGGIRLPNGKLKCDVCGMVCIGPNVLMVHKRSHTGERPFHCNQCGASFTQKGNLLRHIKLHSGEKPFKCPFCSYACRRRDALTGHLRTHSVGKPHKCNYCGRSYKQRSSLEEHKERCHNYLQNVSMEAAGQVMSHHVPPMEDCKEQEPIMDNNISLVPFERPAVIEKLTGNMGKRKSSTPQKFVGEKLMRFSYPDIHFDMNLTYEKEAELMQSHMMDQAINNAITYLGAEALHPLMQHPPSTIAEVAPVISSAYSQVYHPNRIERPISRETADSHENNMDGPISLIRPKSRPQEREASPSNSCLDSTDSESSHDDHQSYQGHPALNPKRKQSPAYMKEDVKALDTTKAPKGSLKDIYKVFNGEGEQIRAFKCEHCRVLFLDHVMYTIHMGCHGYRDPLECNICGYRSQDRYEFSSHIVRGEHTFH
# Chain of UniProt Q9Y2H9 (whole entry, looked up): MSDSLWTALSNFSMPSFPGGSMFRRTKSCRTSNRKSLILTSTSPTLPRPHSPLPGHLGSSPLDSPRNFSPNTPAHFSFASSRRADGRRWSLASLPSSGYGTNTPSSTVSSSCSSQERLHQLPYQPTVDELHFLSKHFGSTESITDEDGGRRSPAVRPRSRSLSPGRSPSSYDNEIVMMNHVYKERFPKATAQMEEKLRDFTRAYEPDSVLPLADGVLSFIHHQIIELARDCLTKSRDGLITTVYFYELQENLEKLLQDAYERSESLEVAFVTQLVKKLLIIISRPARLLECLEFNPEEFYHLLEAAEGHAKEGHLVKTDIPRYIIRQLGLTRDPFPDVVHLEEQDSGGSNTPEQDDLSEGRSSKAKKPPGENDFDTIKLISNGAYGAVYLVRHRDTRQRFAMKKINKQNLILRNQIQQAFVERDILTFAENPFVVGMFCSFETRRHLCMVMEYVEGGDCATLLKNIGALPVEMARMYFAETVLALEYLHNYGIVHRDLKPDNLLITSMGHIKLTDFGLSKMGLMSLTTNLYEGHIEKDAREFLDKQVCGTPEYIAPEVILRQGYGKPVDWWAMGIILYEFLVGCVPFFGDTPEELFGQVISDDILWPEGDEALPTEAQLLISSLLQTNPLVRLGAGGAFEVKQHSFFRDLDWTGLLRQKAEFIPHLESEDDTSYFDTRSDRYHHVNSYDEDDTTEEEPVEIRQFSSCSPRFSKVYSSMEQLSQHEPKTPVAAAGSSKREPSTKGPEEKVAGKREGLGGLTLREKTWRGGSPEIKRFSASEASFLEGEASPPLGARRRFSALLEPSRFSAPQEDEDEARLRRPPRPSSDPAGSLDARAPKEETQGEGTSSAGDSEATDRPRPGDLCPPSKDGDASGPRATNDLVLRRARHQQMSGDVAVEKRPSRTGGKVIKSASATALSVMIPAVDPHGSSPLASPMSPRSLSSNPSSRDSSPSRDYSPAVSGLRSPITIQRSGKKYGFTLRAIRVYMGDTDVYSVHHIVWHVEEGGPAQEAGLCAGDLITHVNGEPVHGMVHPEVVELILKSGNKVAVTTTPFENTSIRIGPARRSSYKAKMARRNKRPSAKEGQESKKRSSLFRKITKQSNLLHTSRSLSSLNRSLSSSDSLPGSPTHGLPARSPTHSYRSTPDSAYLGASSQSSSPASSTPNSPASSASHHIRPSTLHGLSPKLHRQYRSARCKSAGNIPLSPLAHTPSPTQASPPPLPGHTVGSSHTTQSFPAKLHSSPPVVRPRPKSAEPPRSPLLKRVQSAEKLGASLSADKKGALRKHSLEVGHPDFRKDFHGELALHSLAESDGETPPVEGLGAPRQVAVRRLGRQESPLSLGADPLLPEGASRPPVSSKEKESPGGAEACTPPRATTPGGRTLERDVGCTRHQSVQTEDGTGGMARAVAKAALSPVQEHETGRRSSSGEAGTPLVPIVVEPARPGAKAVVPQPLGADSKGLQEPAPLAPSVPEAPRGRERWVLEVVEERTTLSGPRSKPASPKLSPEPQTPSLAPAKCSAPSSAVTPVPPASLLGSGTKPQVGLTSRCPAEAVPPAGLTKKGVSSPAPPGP
# Chain of UniProt P35590 (whole entry, looked up): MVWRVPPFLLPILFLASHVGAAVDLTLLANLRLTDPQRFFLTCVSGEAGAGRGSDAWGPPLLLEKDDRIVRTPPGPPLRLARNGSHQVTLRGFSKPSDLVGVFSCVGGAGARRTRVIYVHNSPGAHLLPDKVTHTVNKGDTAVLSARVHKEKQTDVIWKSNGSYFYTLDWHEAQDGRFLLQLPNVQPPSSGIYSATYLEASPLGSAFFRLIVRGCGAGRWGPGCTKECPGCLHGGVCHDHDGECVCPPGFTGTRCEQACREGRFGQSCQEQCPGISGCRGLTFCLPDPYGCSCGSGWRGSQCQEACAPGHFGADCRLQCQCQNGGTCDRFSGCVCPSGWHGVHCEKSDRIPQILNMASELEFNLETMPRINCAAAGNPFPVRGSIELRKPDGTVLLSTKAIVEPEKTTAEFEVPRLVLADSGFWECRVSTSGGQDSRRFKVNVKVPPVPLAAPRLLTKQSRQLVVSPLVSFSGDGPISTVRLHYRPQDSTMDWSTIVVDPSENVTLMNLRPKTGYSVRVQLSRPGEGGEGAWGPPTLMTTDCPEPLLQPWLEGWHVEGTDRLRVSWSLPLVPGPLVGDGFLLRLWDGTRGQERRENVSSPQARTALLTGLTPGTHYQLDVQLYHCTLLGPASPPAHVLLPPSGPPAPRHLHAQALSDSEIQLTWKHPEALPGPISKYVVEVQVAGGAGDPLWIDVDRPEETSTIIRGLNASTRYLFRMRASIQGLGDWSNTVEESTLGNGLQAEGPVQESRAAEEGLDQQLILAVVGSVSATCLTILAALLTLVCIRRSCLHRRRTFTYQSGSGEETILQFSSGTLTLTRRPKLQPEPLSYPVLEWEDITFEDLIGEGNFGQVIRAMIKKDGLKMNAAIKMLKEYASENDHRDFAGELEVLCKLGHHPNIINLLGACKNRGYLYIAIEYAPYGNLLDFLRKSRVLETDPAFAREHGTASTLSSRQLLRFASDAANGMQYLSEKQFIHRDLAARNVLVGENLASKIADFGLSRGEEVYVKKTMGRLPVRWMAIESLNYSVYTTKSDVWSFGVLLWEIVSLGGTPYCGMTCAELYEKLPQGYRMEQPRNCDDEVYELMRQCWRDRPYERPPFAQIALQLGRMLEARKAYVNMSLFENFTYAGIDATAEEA
# Chain of UniProt P19784 (whole entry, looked up): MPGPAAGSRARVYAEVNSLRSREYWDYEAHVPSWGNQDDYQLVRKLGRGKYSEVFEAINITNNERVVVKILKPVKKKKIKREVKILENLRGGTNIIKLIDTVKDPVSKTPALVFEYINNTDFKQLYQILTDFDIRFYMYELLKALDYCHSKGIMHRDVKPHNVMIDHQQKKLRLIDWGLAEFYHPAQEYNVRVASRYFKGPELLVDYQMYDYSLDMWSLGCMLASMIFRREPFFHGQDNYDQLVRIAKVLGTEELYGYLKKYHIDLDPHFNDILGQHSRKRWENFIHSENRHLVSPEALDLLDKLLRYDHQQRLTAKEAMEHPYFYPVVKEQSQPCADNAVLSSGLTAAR

# Set 1
# Cell line: HEK-293T-ACE2-TMPRSS2
# Technique: cell count
# Concentration: 10 µM
SMILES,viability [%]
O=C1C2C3C=CC(C2C(=O)N1c1ccccc1)C1C2C(=O)N(c4ccccc4)C(=O)C2C31 (stereo not shown),114
CCc1ccc2nc(C)c(CN3CCCC3)c(O)c2c1,111
CC(C)(O)C#Cc1ccc(CN2CCCC(CCC(=O)N3CCOCC3)C2)s1 (stereo not shown),111
CCc1c2c(nc3ccc(O)cc13)-c1cc3c(c(=O)n1C2)COC(=O)[C@]3(O)CC,93
Cn1nccc1C(=O)N1C[C@@H](COCC2CC2)[C@H](c2ccncc2)C1,104
CC[C@@]1(O)C(=O)OCc2c1cc1n(c2=O)Cc2cc3cc(O)ccc3nc2-1,103
O=C(Cn1cncn1)N1CCC(c2cc(-c3ccccc3Cl)n[nH]2)CC1,85
Cc1nc(NCc2csc(C)n2)c2c3c(sc2n1)CCC3,88
CC(C)C[C@H](NC(=O)[C@H](Cc1ccccc1)NC(=O)c1cnccn1)B(O)O,109
c1cc(-c2noc(CSc3nnnn3C3CC3)n2)cs1,103

# Set 2
# SMILES: Cn1cncc1[C@](O)(COc1ccc(C#N)cc1-c1ccc(OC(F)(F)F)cc1)c1ccc(C#N)cc1
# Concentration: 1 µM
target,effect on,technique,remaining binding
"CSNK2A2 (Homo sapiens, UniProt P19784)",cell-free assay,competition with immobilised ligand,100%
"Receptor-type tyrosine-protein kinase FLT3, autoinhibited (FLT3, Homo sapiens, UniProt P36888)",cell-free assay,competition with immobilised ligand,100%
"KIT (Homo sapiens, UniProt P10721, D816H)",cell-free assay,competition with immobilised ligand,77%
"PAK3 (Homo sapiens, UniProt O75914)",cell-free assay,competition with immobilised ligand,96%
"CDK15 (Homo sapiens, UniProt Q96Q40)",cell-free assay,competition with immobilised ligand,59%
"LIM domain kinase 2 (LIMK2, Homo sapiens, UniProt P53671)",cell-free assay,competition with immobilised ligand,72%
"CLK3 (Homo sapiens, UniProt P49761)",cell-free assay,competition with immobilised ligand,75%
"NEK5 (Homo sapiens, UniProt Q6P3R8)",cell-free assay,competition with immobilised ligand,72%
"MAST1 (Homo sapiens, UniProt Q9Y2H9)",cell-free assay,competition with immobilised ligand,92%
"Ribosomal protein S6 kinase alpha-2, N-terminal kinase domain (RPS6KA2, Homo sapiens, UniProt Q15349)",cell-free assay,competition with immobilised ligand,89%
"MAP4K2 (Homo sapiens, UniProt Q12851)",cell-free assay,competition with immobilised ligand,100%
"CDK19 (Homo sapiens, UniProt Q9BWU1)",,competition binding,84%
"ERBB2 (Homo sapiens, UniProt P04626)",cell-free assay,competition with immobilised ligand,100%
"DYRK1B (Homo sapiens, UniProt Q9Y463)",cell-free assay,competition with immobilised ligand,58%
"GRK3 (Homo sapiens, UniProt P35626)",cell-free assay,competition with immobilised ligand,48%
"TIE1 (Homo sapiens, UniProt P35590)",cell-free assay,competition with immobilised ligand,85%
"MAPK9 (Homo sapiens, UniProt P45984)",cell-free assay,competition with immobilised ligand,89%
"NEK4 (Homo sapiens, UniProt P51957)",cell-free assay,competition with immobilised ligand,100%

# Set 3
# Cell line: HEK-293T/ACE2
# Effect on: pseudovirus infection
# Technique: counter-screen
# Organism: VSV pseudotyped with VSV-G
# Concentration: 10 µM
# Time: 16 h
# Baseline: vehicle-treated
Structure (SMILES),GFP-positive cells
CCn1cc(C(=O)O)c(=O)c2cc(F)c(N3CCNC(C)C3)c(F)c21 (stereo not shown),103%
Cc1cccc(C)c1OCC(=O)N[C@@H](Cc1ccccc1)[C@@H](O)C[C@H](Cc1ccccc1)NC(=O)[C@H](C(C)C)N1CCCNC1=O,95%
O=C1[C@H](CC[C@H](O)c2ccc(F)cc2)[C@@H](c2ccc(O)cc2)N1c1ccc(F)cc1,98.2%
O=c1ccn([C@@H]2O[C@H](CO)[C@@H](O)[C@H]2O)c(=O)[nH]1,99.9%
O=NN(CCCl)C(=O)NC1CCCCC1,109%
CC1=C(/C=C/C(C)=C/C=C/C(C)=C/C=C/C=C(C)/C=C/C=C(C)/C=C/C2=C(C)CCCC2(C)C)C(C)(C)CCC1,107%
CC1=C(/C=C/C(C)=C/C=C/C(C)=C\C(=O)O)C(C)(C)CCC1,99.9%
CN(C)CC(c1ccc(O)cc1)C1(O)CCCCC1 (stereo not shown),119%
C#CCN(C)Cc1ccccc1,122%
COc1ccc(Cl)cc1C(=O)NCCc1ccc(S(=O)(=O)NC(=O)NC2CCCCC2)cc1,107%
CC(=O)O[C@H]1C[C@@H]2CC[C@@H]3[C@H](CC[C@@]4(C)[C@H]3C[C@H]([N+]3(C)CCCCC3)[C@@H]4OC(C)=O)[C@@]2(C)C[C@@H]1N1CCCCC1,110%

# Mixed results
Structure (SMILES),target,mode,technique,cell line,concentration,quantity,result
O=C1CCC(N2Cc3c(ccc4c3OCC43CCN(Cc4ccccn4)CC3)C2=O)C(=O)N1 (stereo not shown),"CRBN/Zinc finger protein Helios (Homo sapiens, UniProt Q96SW2+Q9UKS7)",degrader,HiBiT,HEK293,0.1694 nM,protein remaining,112%

# Excerpt of the above (set 1):
SMILES,viability [%]
CCc1ccc2nc(C)c(CN3CCCC3)c(O)c2c1,111
Cc1nc(NCc2csc(C)n2)c2c3c(sc2n1)CCC3,88
O=C1C2C3C=CC(C2C(=O)N1c1ccccc1)C1C2C(=O)N(c4ccccc4)C(=O)C2C31 (stereo not shown),114
